Published values pooled from the literature.
Compare with care: the assays were run in different laboratories. Numbers after ± are the reported error.

With `CN(C)C(=O)c1cccc(N2Cc3cn(Cc4ccc(F)cc4)nc3C2)c1` the efflux ratio was 1.4 (MDR1-MDCK; reference: B-A over A-B).
`CC1(C)C(NC(=O)C(=NOC2(C(=O)O)CC2)c2csc(N)n2)C(=O)N1OS(=O)(=O)O` (centres unmarked) has a CC50 of > 100 µM (SH-SY5Y; cell growth or viability).
`[N-]=[N+]=N[C@]1(CO)O[C@@H](n2ccc(N)nc2=O)[C@@H](F)[C@@H]1O` gave a CC50 of > 100 µM (DBT-9; cytotoxicity).
For `CN(C)C(=O)c1ccnc(N2Cc3cn(Cc4ccc(F)cc4)nc3C2)n1`, the efflux ratio was 2.7 (MDR1-MDCK; reference: B-A over A-B).
For `CC(=O)N[C@H](C(=O)N[C@H](C(=O)N[C@@H](CCCNC(=N)N)C(=O)N[C@@H](CC(N)=O)C(=O)N[C@@H](CC(=O)O)C(=O)N[C@H](C(=O)N1CCC[C@@H]1C(=O)N1CCC[C@H]1C(=O)N[C@@H](CC(=O)O)C(=O)N[C@@H](CO)C(=O)N[C@@H](CC(C)C)C(=O)N[C@@H](CC(C)C)C(=O)N[C@H](C(=O)N[C@@H](Cc1ccccc1)C(N)=O)C(C)C)C(C)C)[C@@H](C)O)C(C)C`, “cytoplasmic peptide amount” read “not detected” (HEK293T; subcellular fractionation LC-MS; cytoplasm; 20 µM, 24 h).
With `O=C(OC[C@@]1(O)C(=O)C=C[C@H]2[C@@H]1[C@H]1C=C[C@@H]2C(=O)[C@]1(O)COC(=O)c1ccccc1)c1ccccc1` the viability was 45.1 to 60.2% (SW480; MTT; range over 50 to 100 µg/mL).
For `CC(C)C[C@@H]1NC(=O)[C@H](CO)NC(=O)[C@H](CC(=O)O)NC(=O)[C@@H]2CCCN2C(=O)[C@H]2CCCN2C(=O)[C@H](C(C)C)NC(=O)[C@H](CC(=O)O)NC(=O)[C@H](CC(N)=O)NC(=O)[C@H](CCCNC(=N)N)NC(=O)[C@H]([C@@H](C)O)NC(=O)[C@H](C(C)C)NC(=O)CCNC(=O)CCNC(=O)[C@H](Cc2ccccc2)NC(=O)[C@H](C(C)C)NC(=O)[C@H](CC(C)C)NC1=O`, “cytoplasmic peptide amount” read “not detected” (HEK293T; subcellular fractionation LC-MS; cytoplasm; 20 µM, 24 h).
`CN(C)C(=O)c1ccnc(N2Cc3cn(Cc4ccc(Cl)cc4)nc3C2)n1` gave an efflux ratio of 1 (MDR1-MDCK; reference: B-A over A-B).
`CC(C)(O)c1ccn2c(-c3ccc(F)c(-c4ccc(F)cc4C#N)c3)cnc2c1F` — result for mRNA level: “no effect” (HEK-293T stably expressing GABAA receptors; quantitative RT-PCR, item: BiP, spliced XBP1, CHOP; 5 µM, 24 h, UPR markers, added: hispidulin 10 µM).
`COc1ccc(O)cc1-c1c[nH]c2ncc(-c3cncc(C(=O)N(C)C)c3)cc12` — result for cytotoxicity: “not toxic” (HEK293T; concentration not given).
With `Cc1cccnc1-c1csc(C(=O)Nc2cc(Cl)cc(NS(C)(=O)=O)c2)c1` the CC50 was > 10 µM (NHDF; cell growth or viability, ATP luminescence; 10 days).
`CC(C)OCCOCc1ccc(OCC(O)CN(N=O)C(C)C)cc1` (centres unmarked): HPRT mutagenicity “negative” (V79; 0.75 mg/mL, 4 h, with and without induced rat S9).
With `CN1CCCNC(=O)c2cccc(c2)C(=O)NCCCN(C)CCCNc2cccc3c2C(=O)c2cccc(c2C3=O)NCCC1` the viability was 4.39% (Ca9-22; cell growth or viability, CCK-8; 15 µM, 48 h).
For `O=C1NC2(CC2)COc2ncc(F)cc2[C@H]2COCCN2c2ccn3ncc1c3n2`, “relative population doubling” read 80.9% (CHL; chromosomal aberration test; 150 µg/mL, 4 h, with rat liver S9; reference: solvent control).
Under “percentage of drug-related material”, `NCCNc1nnnc2c1sc1nc(N3CCOCC3)c3c(c12)CCCC3` is recorded as 15.1% (cryopreserved mouse hepatocytes; UHPLC-MS peak area; 1 µM, 20 min).
`Cl.NCc1ccc2c(c1)CN(C1CCC(=O)NC1=O)C2=O` (centres unmarked) gave a minimum viability of 79.8 ± 7.57% (SNU-182; CellTiter-Glo; concentration not given, 72 h).
With `O=C(NCC(F)(F)F)c1cccc(N2Cc3cn(Cc4ccc(F)cc4)nc3C2)c1` the efflux ratio was 4.2 (MDR1-MDCK; reference: B-A over A-B).

For quick reference, copied from above:
With `Cc1cccnc1-c1csc(C(=O)Nc2cc(Cl)cc(NS(C)(=O)=O)c2)c1` the CC50 was > 10 µM (NHDF; cell growth or viability, ATP luminescence; 10 days).
